Published values collected from several papers.
Every numbered part comes from another study and shows a few of its results, in no order.

Series 1 — method: RNA Bind-n-Seq; form: RNA; matrix: in vitro; concentration: not given; setting: RNA with constant flanks, ends assumed; baseline: input RNA pool; direction: higher = stronger binding
Target: RING finger protein unkempt homolog, zinc fingers 1-6, GST-SBP tag (UNK, Homo sapiens, UniProt Q9C0B0, residues 30-357)
Chain of UniProt Q9C0B0 (30-357, looked up): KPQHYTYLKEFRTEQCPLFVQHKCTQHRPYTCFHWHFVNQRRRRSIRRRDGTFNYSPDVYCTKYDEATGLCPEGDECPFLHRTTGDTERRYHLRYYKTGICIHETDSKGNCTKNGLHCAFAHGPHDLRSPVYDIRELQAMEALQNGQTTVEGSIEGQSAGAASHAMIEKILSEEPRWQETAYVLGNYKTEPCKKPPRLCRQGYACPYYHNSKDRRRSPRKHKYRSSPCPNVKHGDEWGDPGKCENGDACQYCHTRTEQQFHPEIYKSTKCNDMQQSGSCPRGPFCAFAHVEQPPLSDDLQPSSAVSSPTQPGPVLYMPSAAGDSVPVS
All sequences stand within: GGGAGUUCUACAGUCCGACGAUC … CAACAGAGGAUUGAGCAUCA
Oligonucleotide	bound/input enrichment [ratio]
UGCAUUCGCAAAGCAAAGAUCUCUGCUGUUGCUUUCCGGAAAGCUUUCUGCCACCACAAGUCCGUGGAACUUGAUGCCACAGGUGUGAAUGCUGAUAUCACGAUUACAGACAUUAUCAGU	0.118
CAAAGGAGUCUCGAAGAGUCUCAAGGGAAAAUAGCCCAACUGGAGGGAAAACUUGUUUCAACCGAGAAAGAAAAGAUUGAUGAAAAAUCUGAAACAGAAAAACUCUUGGAAUACAUCGAA	0.151
AGUAGAGAGAUAACAAAAGCUGCUCAGAGUCUCAAUGAACUUGAUUAUCUUUCUCAAGGAACCGAUCUUUCUGGAAUAGAAGUGAUAGAAAAUGAUCUACUUUUUAUUGCAAGAGCCCGA	0.139
GCUGGUCAUCCUCUGGCACAGAACGAACGUUGUCUUCACAUGUUUUUACAAGAUGAAAUAACCGAUAAAAGCUAUACUCCAUCUAAAAUAAGACAUGCCUGAAAUUUGGCAAGAAGGGGC	0.184
GUCCCCCUCUUGCUAAAUAAUGUGAAAGGGGAGCCCCCAGAGGACUCACUGCCUGCCGAUCACUUUCAGACACAAACUGAGCCAGUGGACUUGUCAAUCAACAAAGCCAGGACCUCCCCU	0.158
AUCCAUUCUACUCCUUGGAAAUGCCUAUCAGAUGCGAGCUGUUUGAUCAAAACCUGAAGCCCGCUCCCGAGGUGGCAGAGAAGGCUGGCACUUUUGGACCUGGGUCAUAGGAUGAACCUG	0.134
GCACAAAUCUUUCCCACUAGCCAUUUAAUAAGUUAAAAAAAGAUACAAAAACAAAAACCUACCCGUCUUGAACAAACUGUCAUACGUAUGGGACCUACACUUAAUCUAUAUGCUUUACAC	38.8
AAAAUACUACAAGCAGGUUUUAAGAGAAUGGGUGUUGACAAAAUAAUUCCUGUGGACAAAUCCGUAAAAGGAAAGUUUCAGGACAAUUUUGAAUUCGUUCAGUGGUUCAAGAAGUUUUUC	0.117

Series 2 — method: universal PBM; form: double-stranded DNA, one strand shown; matrix: in vitro; concentration: 600 nM; direction: higher = stronger binding
Target: Sal-like protein 4, full length isoform A (SALL4, Homo sapiens, UniProt Q9UJQ4, residues 1-1053)
Chain of UniProt Q9UJQ4 (whole entry, looked up): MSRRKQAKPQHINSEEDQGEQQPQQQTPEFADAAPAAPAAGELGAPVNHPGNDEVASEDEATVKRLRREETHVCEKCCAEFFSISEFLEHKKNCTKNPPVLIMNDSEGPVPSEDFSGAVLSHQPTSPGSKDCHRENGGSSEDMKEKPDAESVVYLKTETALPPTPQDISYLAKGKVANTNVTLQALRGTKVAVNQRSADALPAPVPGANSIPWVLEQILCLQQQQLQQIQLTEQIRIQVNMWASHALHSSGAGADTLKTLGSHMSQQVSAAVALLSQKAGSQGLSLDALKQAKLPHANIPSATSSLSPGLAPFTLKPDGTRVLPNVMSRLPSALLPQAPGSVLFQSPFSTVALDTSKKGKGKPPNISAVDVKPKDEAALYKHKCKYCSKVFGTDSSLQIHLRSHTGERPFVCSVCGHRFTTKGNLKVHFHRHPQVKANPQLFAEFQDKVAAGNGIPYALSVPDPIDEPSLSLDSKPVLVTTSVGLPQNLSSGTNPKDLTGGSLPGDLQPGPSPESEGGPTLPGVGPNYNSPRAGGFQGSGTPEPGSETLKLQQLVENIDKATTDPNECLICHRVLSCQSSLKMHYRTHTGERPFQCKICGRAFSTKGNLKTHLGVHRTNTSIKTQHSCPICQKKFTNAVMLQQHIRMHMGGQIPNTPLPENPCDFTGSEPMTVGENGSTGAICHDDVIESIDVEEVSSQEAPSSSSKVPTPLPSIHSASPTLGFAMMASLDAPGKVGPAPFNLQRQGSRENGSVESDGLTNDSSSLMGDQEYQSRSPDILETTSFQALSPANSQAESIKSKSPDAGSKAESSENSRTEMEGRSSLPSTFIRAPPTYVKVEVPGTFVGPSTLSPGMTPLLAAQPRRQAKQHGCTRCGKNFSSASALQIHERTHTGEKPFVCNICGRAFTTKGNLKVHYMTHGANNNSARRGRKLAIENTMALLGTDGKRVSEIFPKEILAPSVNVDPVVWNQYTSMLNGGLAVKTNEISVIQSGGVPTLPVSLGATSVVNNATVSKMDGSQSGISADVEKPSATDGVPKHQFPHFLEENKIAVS
Setting: 8-mer, flanks averaged, mean of replicates
Oligonucleotide	E-score
AGTCTACA	0.036
CCCAGGAG	-0.367
GAACCGTA	-0.239
AGACTTTG	0.0401
ATCCTAGA	0.0519
ACTTATTG	0.25
AATCAGGA	-0.0515
CATCGACC	-0.0703
ATCGGCTG	-0.13
ATCCAGAC	-0.0704
AAATAGAA	0.175
AGAGTACA	0.0345
GACAGGTA	0.0106
CTCTATAC	0.0535
CCCCCCCA	-0.4
CCTGCATA	0.1
AAAACCTT	0.0702
CTTAGCAA	0.0366
CCACTGAC	-0.165
CGGACGCC	-0.385
AGTAGCGA	-0.0248
ACTAAGCC	-0.0671
CGGGGTCA	-0.23
CCTCCGCA	-0.209
TTCGAAAA	0.225

Series 3 — method: protein binding microarray; form: double-stranded DNA, one strand shown; matrix: in vitro; concentration: not given; baseline: not given; direction: higher = stronger binding
Target: Histone acetyltransferase KAT6A, winged helix 1, GST fusion (KAT6A, Homo sapiens, UniProt Q92794, residues 1-85)
Setting: 8-mer, flanks averaged, mean of 2 arrays, mostly near background
Construct (chain): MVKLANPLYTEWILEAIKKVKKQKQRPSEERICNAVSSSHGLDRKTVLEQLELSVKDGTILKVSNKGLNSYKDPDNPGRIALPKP
Oligonucleotide	E-score
CGTTTCTC	-0.00295
GCCGGGGA	0.304
AGGCATGA	-0.205
CATCAAGG	-0.185
CATGTAAA	0.0168
AAATAGCG	0.0838
CCGGGTCG	0.316
CTCGGGGA	0.0249
AGACAGAG	-0.185
CTGTCGCC	0.214
AACTAGCA	-0.163
GCGAAGCC	0.219
CGAAGACA	0.108
AATCAGAT	-0.223
AGTCCTAA	-0.0445
GATTTAAA	-0.0652
CGAGCCAC	0.0134
CCTGAAAC	0.0616
CCGTACAC	0.174
CCCCTTAG	-0.101

Series 4 — method: RNA Bind-n-Seq; form: RNA; matrix: in vitro; concentration: 365 nM; baseline: no-protein control; direction: higher = stronger binding
Target: RNA binding protein fox-1 homolog 2, RRM domain, GST-SBP tag (RBFOX2, Homo sapiens, UniProt O43251-10, residues 100-194)
Setting: natural RNA segment, single round, ends assumed
All sequences stand within: GGGAGUUCUACAGUCCGACGAUC … UGGAAUUCUCGGGUGCCAA
Construct (chain): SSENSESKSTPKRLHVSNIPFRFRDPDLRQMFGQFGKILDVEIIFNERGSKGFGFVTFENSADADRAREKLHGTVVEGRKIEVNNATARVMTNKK
Oligonucleotide	RBNS enrichment (R)
AGAUGCCACCUCCCUCUCUCUGAGGCAGGCCUGUGGAUGAAGGAGGAGGGUCAGGGCUGGCCUUCCUCUGUGCAUCACUCUGCUAGGUUGGGGGCCCCCGACCCACCAUA	0.888
AUGUGACUUUGGGCGAGUCUCAGUGCCACUUGGUCCCCAGCCAUGGACUCUAUACAGUGAGGGCCACUCACCGACCUGAGUCAGUGUCCUCUGUCUCACAGGGCCCCUCU	0.192
GCAAAUUAAUUGAGAAUGUAUGAAAGUCAUGAAUGUACAAGCCAAAUAAAGCUCUUUAUUAACCCUGAUGUAUCGUGCUCUUGUAUUCUUUGUUGAAGGGAUGAAGCCAA	1.25
CCCUUGGAGCAAAUUCUGCCUAAGCCUCUCACCAAAAUUGAAAUGAAAACAGUUCCACUGACUACAAAAGAGGAAAAAGGCAUAGGGAUAUUCCCUGGUAUCAGUGUAAU	0.359
UUCACUGACAAGAGAAUAGAAACAAUAUGCCCACAUUGCUAUGUUUAUAAUUGCCAGAGCAGUAUUUUUUAUAUUGUAAACAGCGUGCGCAGCUCAGUGUGUGUCAGUGA	0.389
AGUUUGUUGGGGAUGUAGUGAUGGUGGUAAGGAUCAGACCUAGGGCCCAGUGUACACUUAAGCACAUGCCUAACUCAAGAGUUUAGAUUUUAGUAUAGUUUAAAGUUGAG	0.455
GAAGCCAGUUUGACAUAGAGAGAUGUCAGAUUGAUUUGAAAGGUGUGCAGCCUGAUUUAAAACCAAACCCUGAACCCUUUUAAAGAACAAUAAAACAUAUUUUACACGCU	0.537
AUCUAUUUUCUGUUUUACUCGAUUUUGGUUUGGAGGGAAAAGGGCAUUAGUUUAAAAUGUCGUUUUUGUUACAGCACAAAGGUUUUGUUUACCCGUCAAGUAUUAGCAGC	0.487

Excerpt of the above (series 2):
Oligonucleotide	E-score
AGTCTACA	0.036
TTCGAAAA	0.225
CCACTGAC	-0.165
CCCAGGAG	-0.367
GAACCGTA	-0.239
CTTAGCAA	0.0366
CATCGACC	-0.0703
